Assay results collected from several papers.
Compare with care: the assays were run in different laboratories. ≈ marks a conversion by molar mass, not a printed value.
HDAC6 ZnF-UBD domain: Protein deacetylase HDAC6, ZnF-UBD domain (HDAC6, Homo sapiens, UniProt Q9UBN7)
UniProt Q9UBN7, sequence (whole entry, looked up): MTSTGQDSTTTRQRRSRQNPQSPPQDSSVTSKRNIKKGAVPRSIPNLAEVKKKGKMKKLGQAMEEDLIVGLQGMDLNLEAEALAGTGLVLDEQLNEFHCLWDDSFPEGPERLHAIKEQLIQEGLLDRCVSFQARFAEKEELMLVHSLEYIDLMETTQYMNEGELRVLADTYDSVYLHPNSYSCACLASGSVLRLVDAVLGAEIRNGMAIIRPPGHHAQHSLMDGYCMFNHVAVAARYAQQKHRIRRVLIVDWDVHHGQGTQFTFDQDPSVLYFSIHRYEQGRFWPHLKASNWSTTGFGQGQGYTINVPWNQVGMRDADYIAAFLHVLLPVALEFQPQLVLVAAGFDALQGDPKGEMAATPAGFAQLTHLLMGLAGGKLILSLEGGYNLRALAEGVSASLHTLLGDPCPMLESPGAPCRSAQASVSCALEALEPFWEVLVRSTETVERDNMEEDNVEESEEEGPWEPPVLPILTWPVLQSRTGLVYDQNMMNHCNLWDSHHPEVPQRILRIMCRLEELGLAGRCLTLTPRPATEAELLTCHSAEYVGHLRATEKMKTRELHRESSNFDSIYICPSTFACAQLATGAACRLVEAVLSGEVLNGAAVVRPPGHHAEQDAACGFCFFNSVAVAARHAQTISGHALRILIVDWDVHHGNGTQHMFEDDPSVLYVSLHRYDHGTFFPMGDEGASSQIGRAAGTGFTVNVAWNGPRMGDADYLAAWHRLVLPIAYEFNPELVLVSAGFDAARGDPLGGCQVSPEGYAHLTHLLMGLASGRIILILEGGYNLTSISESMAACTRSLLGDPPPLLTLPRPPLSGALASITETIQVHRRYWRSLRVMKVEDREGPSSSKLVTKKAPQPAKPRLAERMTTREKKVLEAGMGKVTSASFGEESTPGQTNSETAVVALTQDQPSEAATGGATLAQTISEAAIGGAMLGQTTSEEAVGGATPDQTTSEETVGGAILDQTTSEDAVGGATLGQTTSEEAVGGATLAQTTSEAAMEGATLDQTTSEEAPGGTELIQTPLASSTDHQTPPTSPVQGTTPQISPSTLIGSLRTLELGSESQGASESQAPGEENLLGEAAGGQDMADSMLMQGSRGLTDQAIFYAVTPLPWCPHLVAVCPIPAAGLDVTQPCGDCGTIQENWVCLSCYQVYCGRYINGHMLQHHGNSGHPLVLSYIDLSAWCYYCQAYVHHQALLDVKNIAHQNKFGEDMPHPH
UniProt Q13043, sequence (whole entry, looked up): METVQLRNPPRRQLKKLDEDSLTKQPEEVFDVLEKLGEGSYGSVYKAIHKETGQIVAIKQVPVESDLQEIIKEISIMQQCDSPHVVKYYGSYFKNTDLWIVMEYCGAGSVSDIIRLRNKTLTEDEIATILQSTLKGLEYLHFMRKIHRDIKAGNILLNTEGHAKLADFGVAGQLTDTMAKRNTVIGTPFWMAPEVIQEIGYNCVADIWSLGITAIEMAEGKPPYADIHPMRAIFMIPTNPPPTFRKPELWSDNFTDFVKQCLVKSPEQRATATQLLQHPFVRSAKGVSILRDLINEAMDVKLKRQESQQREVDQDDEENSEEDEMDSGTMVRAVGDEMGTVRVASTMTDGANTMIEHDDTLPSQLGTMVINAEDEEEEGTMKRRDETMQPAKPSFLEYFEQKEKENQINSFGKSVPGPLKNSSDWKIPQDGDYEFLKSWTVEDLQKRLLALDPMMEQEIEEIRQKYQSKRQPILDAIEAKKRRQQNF

Compound	tested on	assay	system	setting	scale	quantity	result
O=C(/C=C/C=C/C=C/C1CCCCC1)NC1=C[C@@](O)(/C=C/C=C/C=C/C(=O)NC2=C(O)CCC2=O)[C@@H]2O[C@@H]2C1=O	KP-4	cell growth, CellTiter-Glo	–	78 h	–	GI50	25.5 µM
CC(C)[C@H](NC(=O)[C@H](Cc1ccc(O)cc1)NC(=O)[C@H](Cc1ccc(O)cc1)NC(=O)[C@@H]1CCCN1C(=O)[C@H](CCC(=O)O)NC(=O)[C@H](CCC(=O)O)NC(=O)[C@H](Cc1c[nH]c2ccccc12)NC(=O)[C@@H]1CCCN1C(=O)[C@@H](NC(=O)[C@H](CCC(N)=O)NC(=O)c1ccc2c(c1)C(=O)OC21c2ccc(O)cc2Oc2cc(O)ccc21)C(C)C)C(=O)N[C@H](C(=O)N[C@@H](CCCCN)C(=O)N[C@@H](CCCCN)C(=O)N[C@@H](CO)C(=O)N[C@@H](CO)C(=O)NCC(=O)NCC(N)=O)C(C)C	–	–	human, plasma	intravenous infusion, 200 mg, 0.25 h	–	plasma concentration	6990 ng/mL
CC(=O)NC[C@H]1CN(c2ccc(N3CCOCC3)c(F)c2)C(=O)O1	Streptococcus pyogenes	–	10 isolates	serum 0%	–	MIC50	0.5 µg/mL (≈ 1.48 µM)
COc1cnc2cccc(N3CCc4c(cc(Cn5ccnc5C)cc4-c4cn(C)nc4C(F)(F)F)C3=O)c2c1	769-P	cell growth, inhibitor	–	120 h	–	EC50	> 30 µM
OC(CCN1CCCCC1)(c1ccccc1)C1CC2C=CC1C2 (stereo not shown)	–	resting-state EEG	healthy elderly humans	oral, 2 mg, eyes closed, LS mean	–	EEG power, beta, Pz-O1	8.1 µV²
NC(=O)c1cnc2[nH]ccc2c1N[C@@H]1[C@@H]2CC3C[C@H]1C[C@@](O)(C3)C2	–	flow cytometry	Caucasian healthy men, blood	oral, 200 mg single dose, 24 h	reference: baseline	total memory T-cell change	1.25%
CN[C@H](CC(C)C)C(=O)N[C@H]1C(=O)N[C@@H](CC(N)=O)C(=O)N[C@H]2C(=O)N[C@H]3C(=O)N[C@H](C(=O)N[C@H](C(=O)O)c4cc(O)cc(O)c4-c4cc3ccc4O)[C@H](O)c3ccc(c(Cl)c3)Oc3cc2cc(c3O[C@@H]2O[C@H](CO)[C@@H](O)[C@H](O)[C@H]2O[C@H]2C[C@](C)(N)[C@H](O)[C@H](C)O2)Oc2ccc(cc2Cl)[C@H]1O	Streptococcus pyogenes	–	10 isolates	pH 7.0	–	MIC50	0.5 µg/mL (≈ 0.345 µM)
O=C(O)CNC(=O)Cc1ccccc1	–	–	ventricular cardiomyocytes, C57BL/6 mouse	dose not given, 0.156 s	–	sarcomere length	1.65 µm
c1coc(-c2n[nH]cc2-c2ccnc3ccccc23)c1	RTK1 (Candida albicans)	kinase binding, MIB/MS competition	Candida albicans lysate	10 µM	reference: DMSO	log2 fold change	0.03
O=C(O)CCc1nccs1	HDAC6 ZnF-UBD domain	–	–	–	–	Kd	> 1000 µM
CCn1cc(-c2cc(Cn3ccoc3=N)cc3c2CCN([C@@H](C)c2cc(OC)ccn2)C3=O)c(C(F)(F)F)n1	ARH-77	cell growth, inhibitor	–	120 h	–	EC50	8.07 µM
Oc1ccccc1-c1n[nH]cc1-c1ccnc2ccccc12	CDC7 (Candida albicans)	kinase binding, MIB/MS competition	Candida albicans lysate	10 µM	reference: DMSO	log2 fold change	0.44
CC[C@@H]1[C@H](F)C(=O)N[C@@H]1COc1nccc2cc(C(N)=O)c(OC)cc12	Serine/threonine-protein kinase 4 (STK4, Homo sapiens, UniProt Q13043)	ATP-site probe binding, ActivX profiling, measured: MST1	THP-1 cell lysate	0.01 mM, Lys1 site	–	inhibition	-7.6%
CCn1cc(-c2cc(Cn3ccnc3)cc3c2CCN([C@H](c2cc(OC)ccn2)C2CC2)C3=O)c(C(F)(F)F)n1	Capan-2	cell growth, inhibitor	–	120 h	–	EC50	0.0536 µM
O=C(O)CCc1ccccc1OCc1ccccn1	HDAC6 ZnF-UBD domain	–	–	–	–	Kd	> 1000 µM
Cn1cc(-c2ccc(-c3cncc(Cl)c3N3CCC4(CCNC4=O)CC3)cc2)cn1	COLO 205	gene expression, microarray, measured: ZFP14 mRNA	–	concentration not given, 6 h	reference: untreated cells	log2 fold change	2.62

For quick reference, copied from above:
Compound	tested on	assay	system	setting	scale	quantity	result
O=C(O)CCc1nccs1	HDAC6 ZnF-UBD domain	–	–	–	–	Kd	> 1000 µM
NC(=O)c1cnc2[nH]ccc2c1N[C@@H]1[C@@H]2CC3C[C@H]1C[C@@](O)(C3)C2	–	flow cytometry	Caucasian healthy men, blood	oral, 200 mg single dose, 24 h	reference: baseline	total memory T-cell change	1.25%
